Experimental data collected from several papers.
Numbered parts are unrelated; each lists some results of a single study. “And” joins repeats or separate records; there may be more than shown.
Chain of UniProt Q9Y2U5 (whole entry, looked up): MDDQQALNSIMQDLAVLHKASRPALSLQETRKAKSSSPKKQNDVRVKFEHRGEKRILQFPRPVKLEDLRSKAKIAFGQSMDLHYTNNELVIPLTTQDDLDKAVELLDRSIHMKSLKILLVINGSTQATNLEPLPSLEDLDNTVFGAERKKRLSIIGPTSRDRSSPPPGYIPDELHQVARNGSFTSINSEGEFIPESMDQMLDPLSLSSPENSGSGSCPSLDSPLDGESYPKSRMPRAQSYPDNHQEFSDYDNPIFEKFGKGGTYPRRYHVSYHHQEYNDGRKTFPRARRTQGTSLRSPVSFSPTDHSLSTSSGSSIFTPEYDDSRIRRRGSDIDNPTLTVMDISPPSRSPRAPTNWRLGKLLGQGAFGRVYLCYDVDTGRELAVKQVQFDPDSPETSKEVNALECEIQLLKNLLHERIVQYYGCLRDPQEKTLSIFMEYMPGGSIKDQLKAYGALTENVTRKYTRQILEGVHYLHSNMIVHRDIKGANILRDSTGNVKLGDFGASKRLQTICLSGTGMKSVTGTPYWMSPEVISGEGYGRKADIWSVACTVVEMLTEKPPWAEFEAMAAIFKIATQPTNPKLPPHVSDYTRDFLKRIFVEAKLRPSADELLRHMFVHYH
Chain of UniProt O15264 (whole entry, looked up): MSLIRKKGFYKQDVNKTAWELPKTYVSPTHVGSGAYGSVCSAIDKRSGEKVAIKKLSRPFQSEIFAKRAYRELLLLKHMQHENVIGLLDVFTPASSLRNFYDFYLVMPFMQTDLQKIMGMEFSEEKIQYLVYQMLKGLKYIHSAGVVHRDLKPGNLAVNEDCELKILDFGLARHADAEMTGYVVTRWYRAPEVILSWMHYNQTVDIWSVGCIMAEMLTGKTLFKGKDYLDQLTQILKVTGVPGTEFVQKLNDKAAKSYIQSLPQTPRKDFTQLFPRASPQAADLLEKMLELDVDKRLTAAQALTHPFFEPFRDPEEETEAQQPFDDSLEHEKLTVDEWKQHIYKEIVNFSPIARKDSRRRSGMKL
Chain of UniProt O95747 (whole entry, looked up): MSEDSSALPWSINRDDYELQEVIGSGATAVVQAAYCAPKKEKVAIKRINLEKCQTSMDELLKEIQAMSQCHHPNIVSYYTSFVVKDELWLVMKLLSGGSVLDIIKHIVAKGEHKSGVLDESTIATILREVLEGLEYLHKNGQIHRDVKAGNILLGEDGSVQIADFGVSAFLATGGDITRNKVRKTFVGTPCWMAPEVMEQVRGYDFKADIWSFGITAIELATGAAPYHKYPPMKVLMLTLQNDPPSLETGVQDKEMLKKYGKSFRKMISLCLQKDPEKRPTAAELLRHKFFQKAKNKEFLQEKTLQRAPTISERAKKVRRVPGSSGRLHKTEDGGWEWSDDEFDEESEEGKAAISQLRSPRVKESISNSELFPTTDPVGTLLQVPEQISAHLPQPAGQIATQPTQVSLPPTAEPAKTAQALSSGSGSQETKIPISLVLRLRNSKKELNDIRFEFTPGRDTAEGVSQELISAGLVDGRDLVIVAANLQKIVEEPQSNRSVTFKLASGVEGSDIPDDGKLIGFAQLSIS
Chain of UniProt P06241 (whole entry, looked up): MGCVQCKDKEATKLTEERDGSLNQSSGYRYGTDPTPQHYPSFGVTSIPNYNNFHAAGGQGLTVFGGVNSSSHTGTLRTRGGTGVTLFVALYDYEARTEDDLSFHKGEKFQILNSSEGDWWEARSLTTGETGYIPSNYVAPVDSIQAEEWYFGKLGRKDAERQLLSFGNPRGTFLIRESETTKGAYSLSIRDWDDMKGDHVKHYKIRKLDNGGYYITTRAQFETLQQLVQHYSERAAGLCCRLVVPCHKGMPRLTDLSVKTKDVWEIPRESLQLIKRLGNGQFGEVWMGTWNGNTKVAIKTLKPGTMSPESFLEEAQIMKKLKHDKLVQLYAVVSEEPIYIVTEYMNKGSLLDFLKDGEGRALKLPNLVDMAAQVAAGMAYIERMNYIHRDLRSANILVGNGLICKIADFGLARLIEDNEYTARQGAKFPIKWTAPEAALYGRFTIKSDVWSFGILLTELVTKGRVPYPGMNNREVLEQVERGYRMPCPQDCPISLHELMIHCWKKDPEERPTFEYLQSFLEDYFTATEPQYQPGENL
Chain of UniProt Q08881 (whole entry, looked up): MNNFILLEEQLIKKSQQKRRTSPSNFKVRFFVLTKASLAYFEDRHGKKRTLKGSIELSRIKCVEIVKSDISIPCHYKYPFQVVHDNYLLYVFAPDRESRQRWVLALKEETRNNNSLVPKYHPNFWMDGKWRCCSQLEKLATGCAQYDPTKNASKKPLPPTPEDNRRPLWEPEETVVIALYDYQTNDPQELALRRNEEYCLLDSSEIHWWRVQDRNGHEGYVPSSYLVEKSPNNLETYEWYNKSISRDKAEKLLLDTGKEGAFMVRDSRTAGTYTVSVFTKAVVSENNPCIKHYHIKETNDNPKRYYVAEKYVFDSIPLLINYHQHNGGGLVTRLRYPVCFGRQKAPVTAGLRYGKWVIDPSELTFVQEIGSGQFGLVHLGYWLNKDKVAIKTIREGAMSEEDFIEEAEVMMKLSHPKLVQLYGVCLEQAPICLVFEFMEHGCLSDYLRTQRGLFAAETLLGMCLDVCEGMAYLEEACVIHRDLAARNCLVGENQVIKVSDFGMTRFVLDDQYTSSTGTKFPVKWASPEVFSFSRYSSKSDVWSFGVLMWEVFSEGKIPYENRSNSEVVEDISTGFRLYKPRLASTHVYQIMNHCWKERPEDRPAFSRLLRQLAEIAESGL
Chain of UniProt Q96PY6 (whole entry, looked up): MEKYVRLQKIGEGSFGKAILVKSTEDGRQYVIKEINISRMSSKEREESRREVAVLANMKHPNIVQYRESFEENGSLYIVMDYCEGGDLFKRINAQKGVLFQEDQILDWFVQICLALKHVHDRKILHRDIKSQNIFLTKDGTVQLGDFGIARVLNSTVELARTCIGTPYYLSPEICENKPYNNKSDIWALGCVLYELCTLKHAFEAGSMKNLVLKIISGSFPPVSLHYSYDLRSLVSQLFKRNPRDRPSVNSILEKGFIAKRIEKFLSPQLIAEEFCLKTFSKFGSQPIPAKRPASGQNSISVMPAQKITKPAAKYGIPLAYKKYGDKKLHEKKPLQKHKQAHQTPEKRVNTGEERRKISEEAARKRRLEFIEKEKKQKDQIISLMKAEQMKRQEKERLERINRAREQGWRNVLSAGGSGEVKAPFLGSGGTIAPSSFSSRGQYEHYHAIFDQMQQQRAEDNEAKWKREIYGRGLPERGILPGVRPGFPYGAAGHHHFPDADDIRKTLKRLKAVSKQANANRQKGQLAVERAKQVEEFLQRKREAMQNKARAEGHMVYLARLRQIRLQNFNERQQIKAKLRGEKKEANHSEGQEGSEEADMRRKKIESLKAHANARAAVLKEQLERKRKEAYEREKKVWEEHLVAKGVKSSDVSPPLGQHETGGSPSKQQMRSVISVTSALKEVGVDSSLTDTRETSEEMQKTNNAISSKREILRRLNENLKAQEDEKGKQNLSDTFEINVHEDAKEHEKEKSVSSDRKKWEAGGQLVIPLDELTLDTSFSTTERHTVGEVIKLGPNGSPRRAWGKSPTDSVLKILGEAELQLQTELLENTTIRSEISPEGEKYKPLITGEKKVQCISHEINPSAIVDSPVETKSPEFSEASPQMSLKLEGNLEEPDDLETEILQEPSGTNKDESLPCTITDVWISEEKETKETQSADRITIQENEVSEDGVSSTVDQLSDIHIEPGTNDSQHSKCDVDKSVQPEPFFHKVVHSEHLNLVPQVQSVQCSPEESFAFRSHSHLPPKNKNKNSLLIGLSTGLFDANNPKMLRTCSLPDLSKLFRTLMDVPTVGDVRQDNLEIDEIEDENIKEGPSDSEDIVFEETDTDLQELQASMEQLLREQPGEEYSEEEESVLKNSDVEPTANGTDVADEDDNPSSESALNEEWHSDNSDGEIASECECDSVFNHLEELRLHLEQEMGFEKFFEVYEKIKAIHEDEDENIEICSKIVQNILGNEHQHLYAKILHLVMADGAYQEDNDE

Set 1
Target: Activin receptor type-1 (ACVR1, Homo sapiens, UniProt Q04771)
Chain of UniProt Q04771 (whole entry, looked up): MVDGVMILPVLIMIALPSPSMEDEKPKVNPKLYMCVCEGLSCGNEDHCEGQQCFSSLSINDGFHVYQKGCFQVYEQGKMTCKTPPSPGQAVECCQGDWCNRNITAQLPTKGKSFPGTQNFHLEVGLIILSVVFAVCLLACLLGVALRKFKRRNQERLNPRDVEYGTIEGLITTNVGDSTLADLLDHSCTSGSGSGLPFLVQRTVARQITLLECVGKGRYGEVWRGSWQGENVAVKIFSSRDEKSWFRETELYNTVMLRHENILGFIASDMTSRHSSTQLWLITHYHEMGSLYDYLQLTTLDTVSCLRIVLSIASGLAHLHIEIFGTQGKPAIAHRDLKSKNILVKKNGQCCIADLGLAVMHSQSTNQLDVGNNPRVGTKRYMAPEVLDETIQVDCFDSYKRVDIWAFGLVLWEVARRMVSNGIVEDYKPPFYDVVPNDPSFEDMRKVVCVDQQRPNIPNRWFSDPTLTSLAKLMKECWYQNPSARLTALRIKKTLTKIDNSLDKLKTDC
Read-out: enzyme activity
Action: inhibitor
Concentration: 0.5 µM
Reference: control
SMILES | remaining activity [%]
Nc1ncnc2n[nH]c(Nc3ccc(F)cc3)c12 | 127
Cc1nc(-c2ccccc2)c(-c2ccncc2)o1 | 104
CNC(=O)c1cc(Oc2ccc(NC(=O)Nc3ccc(Cl)c(C(F)(F)F)c3)cc2)ccn1 | 98.7
Cc1ccc(Nc2nccc(N(C)c3ccc4c(C)n(C)nc4c3)n2)cc1S(N)(=O)=O | 104
CC(C)[C@H](CO)Nc1nc(Nc2cc(N)cc(Cl)c2)c2ncn(C(C)C)c2n1 | 99.4
COc1cc2ncnc(Nc3ccc(Oc4ccccc4)cc3)c2cc1OC | 93.7
O=C(O)c1ccc2c3c1cccc3c(=O)n1c3ccccc3nc21 | 91.1
Nc1[nH]nc2nc3ccccc3nc12 | 94.3
O=C(CCCc1ccc(-c2ccccc2F)cc1)Nc1ccc(O)cc1 | 95.2
O=c1c2ccccc2[nH]c(=S)n1CCN1CCC(=C(c2ccc(F)cc2)c2ccc(F)cc2)CC1 | 107
CCOC(=O)c1c(C)[nH]c(/C=C2\C(=O)Nc3ccccc32)c1C | 99.8
Oc1ccc(-c2nc(-c3ccncc3)c(-c3ccc(F)cc3)[nH]2)cc1 | 106
O=C(Nc1cccc(Nc2cc(Nc3cccc(C(F)(F)F)c3)ncn2)c1)C1CC1 | 103
N#CC(C#N)=C(N)/C(C#N)=C/c1ccc(O)cc1 | 93.8
Cn1c2ccccc2c2c3c(c4c5ccccc5n(CCC#N)c4c21)CNC3=O | 155

Set 2
Compound: CN(C)c1ncnc(-c2ccc3nc(Nc4cc(CN5CCN(C(=O)CC(F)(F)F)CC5)ccn4)[nH]c3c2)c1Cl
Read-out: cell-free assay
Technique: competition with immobilised ligand
Concentration: 1 µM
target | remaining binding
Tyrosine-protein kinase Fyn (FYN, Homo sapiens, UniProt P06241) | 68%
Mitogen-activated protein kinase 13 (MAPK13, Homo sapiens, UniProt O15264) | 100%
Mitogen-activated protein kinase kinase kinase 2 (MAP3K2, Homo sapiens, UniProt Q9Y2U5) | 78%
Serine/threonine-protein kinase Nek1 (NEK1, Homo sapiens, UniProt Q96PY6) | 88%
Serine/threonine-protein kinase OSR1 (OXSR1, Homo sapiens, UniProt O95747) | 94%
Activin receptor type-1 (ACVR1, Homo sapiens, UniProt Q04771) | 88%
Tyrosine-protein kinase ITK/TSK (ITK, Homo sapiens, UniProt Q08881) | 100%

Set 3
Cell line: mouse MPNST tumor cells
Technique: high-content nuclear imaging
Item: cell number
Concentration: 10 µM
Time: 12 h
Setting: mean of 2 replicates
Reference: plate mean
Direction: higher = more cells
Structure (SMILES) | nuclei count
O=C(O)COCCN1CCN(C(c2ccccc2)c2ccc(Cl)cc2)CC1 (stereo not shown) | -1.28 z-score
CC(C)NC(=O)Cn1c(-c2ccc(F)c(Cl)c2)nc2ncc(OCCCN3CCOCC3)cc2c1=O | -0.0938 z-score
CN1CC2c3ccccc3Oc3ccc(Cl)cc3C2C1 (stereo not shown) | 3.07 z-score and 2.82 z-score and 1.83 z-score
N#Cc1cc2[nH]c(=O)c(=O)[nH]c2cc1[N+](=O)[O-] | 1.36 z-score
O=C(Nc1nncs1)c1cccnc1 | 0.505 z-score
CC(=O)Oc1ccccc1C(=O)Oc1ccccc1C(=O)O | 1.07 z-score
CN(C)CCCN1c2ccccc2Sc2ccccc21 | 2.4 z-score
CCN(CC)CCCCN1c2ccccc2Oc2ccc(Cl)cc21 | -4.8 z-score

Set 4
Organism: Sarcocystis neurona
Read-out: parasite growth
Concentration: 10 µM
Time: 96 h
Setting: secondary screen
SMILES | inhibition [%]
CC(COc1ccccc1)NC(C)C(O)c1ccc(O)cc1 (stereo not shown) | -21.7
CNC(=C[N+](=O)[O-])NCCSCc1csc(CN(C)C)n1 | -33.2
CCCCN1CCCC1CNC(=O)c1cc(C#N)c2ccccc2c1OC (stereo not shown) | -32.9
O=c1[nH]cnc2c1ncn2[C@H]1CC[C@@H](CO)O1 | -31.9

For quick reference, copied from above (set 1):
SMILES | remaining activity [%]
CNC(=O)c1cc(Oc2ccc(NC(=O)Nc3ccc(Cl)c(C(F)(F)F)c3)cc2)ccn1 | 98.7
Cc1ccc(Nc2nccc(N(C)c3ccc4c(C)n(C)nc4c3)n2)cc1S(N)(=O)=O | 104
CC(C)[C@H](CO)Nc1nc(Nc2cc(N)cc(Cl)c2)c2ncn(C(C)C)c2n1 | 99.4
COc1cc2ncnc(Nc3ccc(Oc4ccccc4)cc3)c2cc1OC | 93.7
